Measured values collected from several papers.
Compare with care: the assays were run in different laboratories. ± gives the spread as reported.
Cell line: MDA-MB-231

SMILES | test | conditions | scale | endpoint | value
O=C1NC(c2ccccc2)(c2ccccc2)C(=O)N1Cc1cn(-c2c3ccccc3nc3ccccc23)nn1 | NCI60 single dose screen | 10 µM |  | growth percentage | 73.1%
C=CCNC(=S)NNC(=O)COc1ccc2c(C)c(CC)c(=O)oc2c1C | MTT |  |  | IC50 | 93.9 mg/L
CN(C)c1ccc2cc(C(=O)NS(=O)(=O)c3ccccc3-c3ccccc3)oc2c1 | cell proliferation | concentration not given |  | maximal inhibition | 0%
C=C1CN(S(=O)(=O)c2ccc(C)cc2)CCCN(CC2CCCCC2)CCCN(S(=O)(=O)c2ccc(OCCO)cc2)C1.Cl |  | 4 µM, 48 h, with: progranulin 1 µg/mL |  | mammosphere formation | decreased
C#C[C@@]1(O)[C@@H](CO)O[C@@H](n2ccc3c(N)ncnc32)[C@@H]1O | cell growth, SRB |  |  | TGI | 5.89 µM
COc1c(C)c(OC(=O)c2ccc(C)cc2)c(C)c(O)c1C(=O)/C=C/c1ccccc1 |  |  | baseline: CL over MDA-MB-231 | selectivity index | 1.01
C=CCn1c(=O)c2cnc(Nc3ccc(N4CCN(C)CC4)cc3)nc2n1-c1ccc2c(n1)[C@@](O)(CC)CC2 | flow cytometry | concentration not given |  | G1 phase mitotic cells | 0.39%
CCCNC(=O)[C@H]1O[C@@H]1C(=O)N[C@H](C(=O)N1CCC[C@H]1C(=O)OC)[C@@H](C)CC | cell viability, MTT | 4 h, dark |  | EC50 | > 100 µM
Cc1ccc(CNC(=O)Cn2cc(CSc3nc4ccccc4[nH]3)nn2)cc1 | MTT | 500 ppm |  | viability | 6.32%
CCOc1ccc(-c2nc3cc(-c4nc5cc(N6CCN(C)CC6)ccc5[nH]4)ccc3[nH]2)cc1OCC | SRB | 10 µM, 48 h |  | growth percent | 19.4%
Cc1[nH]c2ccccc2c1C1=C(Cl)C(=O)C(Cl)=C(N2CCOCC2)C1=O | apoptosis antibody array, measured: HTRA2/Omi, p53, catalase, procaspase-3 | 100 nM, 48 h | baseline: vehicle | protein level | increased
CCCC(CCC)C(=O)OCc1cn(-c2c3ccccc3nc3ccccc23)nn1 | NCI60 single dose screen | 10 µM |  | growth percentage | 89.7%
Cc1cc(NS(=O)(=O)c2ccc(NC(=O)/C(C#N)=C/c3ccncc3)cc2)no1 | cytotoxicity, MTT |  | baseline: HSF over MDA-MB-231 IC50 | selectivity index | > 1.72
COc1cccc2c1C(=O)c1c(O)c3c(c(O)c1C2=O)C[C@@](O)(C(=O)CO)C[C@@H]3O[C@H]1C[C@H](N)[C@H](O)[C@H](C)O1 | H2DCFDA flow cytometry | concentration not given, 48 h |  | ROS level | 70.7%
CC(C)(C)OC(=O)NCCOc1ccc(Cl)cc1C(=O)N[C@@H](Cc1ccccc1)C(=O)Nc1ccc([N+](=O)[O-])cc1Cl |  | up to 10 µM, 72 h |  | antiproliferative activity | inactive
CCCC(=O)Oc1c(C)c(O)c(C(=O)/C=C/c2ccccc2)c(OC)c1C |  |  | baseline: CL over MDA-MB-231 | selectivity index | 0.86
Cc1cc(C(=O)NCc2ccc(CNS(=O)(=O)c3ccc4c(c3)CCO4)cc2)n(C)n1 | Matrigel invasion | 0.1 µM, 22 h, with: CXCL12α 200 ng/mL |  | inhibition | ~55%
CCN(CC)c1ccc(C=NNC(=O)CSc2nc3ccccc3c(=O)n2Cc2ccc(S(N)(=O)=O)cc2)c(O)c1 | NCI five-dose screen |  |  | TGI | > 100 µM
C[C@@H]1CC[C@@H]([C@](O)(CNCc2ccc(F)cc2)COCc2ccc(F)cc2)[C@H](OCc2ccc(F)cc2)C1 | cell growth, inhibitor, MTT | 72 h |  | IC50 | 1.79 µM

SMILES | test | conditions | scale | endpoint | value
O=c1[nH]cc(F)c(=O)[nH]1 | cytotoxicity, MTT |  | baseline: HSF over MDA-MB-231 IC50 | selectivity index | 6.3
Cc1c(Cc2ccccc2)c(=O)oc2c(C)c(OCC(=O)NN=Cc3ccc(Cl)cc3)ccc12 | cell viability, MTT |  |  | IC50 | 78.5 µM
CC(C)[C@H](NC(=O)c1cc(Cl)ccc1OCCNC(=O)OC(C)(C)C)C(=O)Nc1ccc([N+](=O)[O-])cc1Cl | Western blot | 1, 5, 10 µM, 48 h |  | cleaved caspase-3 level | increased
O=C(/C=C/C=C/C=C/C1CCCCC1)NC1=C[C@@](O)(/C=C/C=C/C=C/C(=O)NC2=C(O)CCC2=O)[C@@H]2O[C@@H]2C1=O | cell growth, CellTiter-Glo | 78 h |  | GI50 | 15 µM
OCc1ccc(Nc2ccc3c(Nc4cccc(C(F)(F)F)c4)ncnc3c2)cc1 | annexin V-PE/DAPI | concentration not given, 24 h |  | early apoptotic cells | 10.1%
CO[C@H]1[C@H](O[C@H]([C@H]2O[C@@H](n3ccc(=O)[nH]c3=O)[C@H](O)[C@@H]2O)[C@H](NCCCNC(=O)[C@@H](NC(=O)[C@@H](NC(=O)N[C@H](C(=O)O)C(C)C)[C@@H]2CCN=C(N)N2)[C@@H](OC(=O)CCCCCCCCCCCCN(O)C(=N)N)C(C)C)C(=O)O)O[C@H](CN)[C@H]1O | Boyden chamber | 1.0 µM, 24 h |  | migration inhibition | 82%
Nc1ccccc1NC(=O)c1ccc(CNc2ccc(NC3=C(Cl)C(=O)c4cccnc4C3=O)cc2)cc1 | annexin V/PI staining, measured: annexin V-/PI- | 8 µM, 72 h |  | viable cells | 52.7%
COc1ccc(OC)c(-c2nc3ccc(-c4nc5ccc(N6CCN(C)CC6)cc5[nH]4)cc3[nH]2)c1 | SRB | 10 µM, 48 h |  | growth percent | 122%
O=C1C[C@@H](c2ccc(O)cc2)Oc2cc(O)cc(O)c21 | H2DCFDA flow cytometry | concentration not given, 48 h |  | ROS level | 57.3%
O=P(O)(O)C(O)(Cn1ccnc1)P(=O)(O)O | AlamarBlue | 7.5 µM, 72 h | baseline: control | viability | 83 ± 1%
CCCN1CCN(c2ccc3[nH]c(-c4ccc5[nH]c(-c6cc(OC)c(OC)c(OC)c6)nc5c4)nc3c2)CC1 | SRB | 10 µM, 48 h |  | growth percent | 98.4%
CCCCCCCC(=O)Oc1c(C)c(O)c(C(=O)/C=C/c2ccccc2)c(OC)c1C |  |  | baseline: CL over MDA-MB-231 | selectivity index | 0.97
CCCOc1ccc2c(C)c(CC)c(=O)oc2c1C | MTT |  |  | IC50 | 211 mg/L
COc1c(C)c(OCc2ccccc2)c(C)c(O)c1C(=O)/C=C/c1ccccc1 |  |  | baseline: CL over MDA-MB-231 | selectivity index | 0.84
CCOc1ccc2c(C)c(CC)c(=O)oc2c1C | cell viability, MTT |  |  | IC50 | 765 µM
CCn1cc(-c2cc(Cn3ccnc3)cc3c2CCN([C@H](c2cc(OC)ccn2)C2CC2)C3=O)c(C(F)(F)F)n1 | cell growth, inhibitor | 120 h |  | EC50 | > 30 µM
CCCN1CCN(c2ccc3nc(-c4ccc5nc(-c6cc(OC)ccc6OC)[nH]c5c4)[nH]c3c2)CC1 | SRB | 10 µM, 48 h |  | growth percent | 107%
CC(C)(C)OC(=O)N1CCC(Oc2ccc(Cl)cc2C(=O)N[C@@H](Cc2ccccc2)C(=O)Nc2cc(C(F)(F)F)cc(C(F)(F)F)c2)CC1 |  | up to 10 µM, 72 h |  | antiproliferative activity | inactive

A few entries again:
SMILES | test | conditions | scale | endpoint | value
O=c1[nH]cc(F)c(=O)[nH]1 | cytotoxicity, MTT |  | baseline: HSF over MDA-MB-231 IC50 | selectivity index | 6.3
Cc1c(Cc2ccccc2)c(=O)oc2c(C)c(OCC(=O)NN=Cc3ccc(Cl)cc3)ccc12 | cell viability, MTT |  |  | IC50 | 78.5 µM
CC(C)[C@H](NC(=O)c1cc(Cl)ccc1OCCNC(=O)OC(C)(C)C)C(=O)Nc1ccc([N+](=O)[O-])cc1Cl | Western blot | 1, 5, 10 µM, 48 h |  | cleaved caspase-3 level | increased
O=C(/C=C/C=C/C=C/C1CCCCC1)NC1=C[C@@](O)(/C=C/C=C/C=C/C(=O)NC2=C(O)CCC2=O)[C@@H]2O[C@@H]2C1=O | cell growth, CellTiter-Glo | 78 h |  | GI50 | 15 µM
OCc1ccc(Nc2ccc3c(Nc4cccc(C(F)(F)F)c4)ncnc3c2)cc1 | annexin V-PE/DAPI | concentration not given, 24 h |  | early apoptotic cells | 10.1%
